Measured values of several laboratories.
Several values in a cell are separate wells, animals, samples, runs or records. Numbers after ± are the reported error.
UniProt P04062, sequence (whole entry, unmodified, looked up): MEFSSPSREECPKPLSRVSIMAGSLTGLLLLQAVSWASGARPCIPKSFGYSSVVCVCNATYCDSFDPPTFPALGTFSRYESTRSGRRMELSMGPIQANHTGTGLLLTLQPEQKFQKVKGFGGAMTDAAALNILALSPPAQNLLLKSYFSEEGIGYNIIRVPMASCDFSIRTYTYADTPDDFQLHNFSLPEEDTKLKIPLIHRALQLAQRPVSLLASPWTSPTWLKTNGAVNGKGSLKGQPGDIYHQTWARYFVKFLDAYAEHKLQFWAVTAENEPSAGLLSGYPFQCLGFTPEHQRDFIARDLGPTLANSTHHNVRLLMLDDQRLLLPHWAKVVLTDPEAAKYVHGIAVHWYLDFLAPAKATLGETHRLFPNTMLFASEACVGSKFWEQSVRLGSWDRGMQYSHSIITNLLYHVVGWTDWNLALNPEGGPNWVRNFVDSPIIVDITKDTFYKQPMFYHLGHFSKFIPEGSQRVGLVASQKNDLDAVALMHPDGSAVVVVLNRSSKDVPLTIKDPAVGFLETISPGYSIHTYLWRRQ

COc1ccc2c(c1)C(=O)C(=C[O-])C2.[Na+] — pseudo-first-order rate constant (HPLC-MS; pH 10.2, together with: 50 mM N-α-acetyl-lysine): 0 h⁻¹
CN1CCC[C@]1(C)/C=C/S(=O)(=O)NC(=O)Nc1c2c(cc3c1CCC3)CCC2 — IL-1β inhibition (human, whole blood ex vivo; 50 mg twice daily, day 14, 3 h, multiple ascending dose, together with: LPS and ATP): 99.4%
Cc1cc2cc(C(=O)N(Cc3ccc(C(F)(F)F)cn3)[C@H](C)c3ncccn3)ccc2nc1N — inhibition (ELISA, measured: SDMA; mouse, HCT-116 MTAP-deleted xenograft, tumour; oral, 100 mg/kg once daily, 4 doses, 4 h after last dose; baseline: vehicle): 74%
COc1cnc2cccc(N3CCc4c(cc(Cn5ccnc5)cc4-c4cn(C)nc4C(F)(F)F)C3=O)c2c1 — tumour volume (BALB/c nude mice, MV4-11 xenograft; intraperitoneal, 100 mg/kg, day 21): 92 mm3 and 145 mm3 and 128 mm3 and 155 mm3 and 172 mm3 and 142 mm3
OCc1ccc(C2NCCc3cc(O)c(O)cc32)o1 (stereo not drawn) — Fe2+ chelation (ferrozine; cell-free; 100 µM, DMSO solvent): 92.38 ± 0.33%
COc1cccc(Nc2nc(NCC3CCCO3)c3ccccc3n2)c1.Cl (stereo not drawn) — translation activity (Trypanosoma cruzi; reporter mRNA translation, inhibitor, measured: capped polyadenylated Renilla luciferase mRNA; cell-free extract; concentration not given; baseline: positive over negative control): 86.3% and 76.7% and 78.9% and 77.8%
CCCCCCC(CSS(=O)(=O)O)NCC(C)C (stereo not drawn) — spleen weight decrease (Swiss Webster mice, Schistosoma mansoni infected; 100 mg/kg; baseline: vehicle control): 8%
CCCCCCCCCCCCCCCC(=O)NCCCC[C@H](N)C(=O)N[C@@H](CC(=O)O)C(=O)N[C@H](C(=O)N[C@@H](Cc1c[nH]cn1)C(=O)N[C@@H](Cc1ccccc1)C(=O)N[C@@H](CCCNC(=N)N)C(=O)N[C@H](C(=O)N[C@@H](Cc1ccccc1)C(=O)N[C@@H](CCCNC(=N)N)C(=O)N[C@@H](CO)C(=O)N[C@@H](Cc1c[nH]cn1)C(=O)N[C@@H](CO)C(=O)N[C@@H](CC(=O)O)C(=O)N[C@@H](Cc1ccc(O)cc1)C(=O)N[C@@H](CCCNC(=N)N)C(=O)N[C@@H](CCCNC(=N)N)C(=O)N[C@H](C(=O)O)[C@@H](C)CC)[C@@H](C)O)[C@@H](C)O — blood glucose (C57BL/6J mice, MCD diet-fed; dose not given, 3 weeks, NASH model): 92.5 ± 8.2 mg/dL
O=C(C1CCCN(Cc2ccc(Cl)cc2)C1)N1CCCCC1.O=C(O)C(=O)O (stereo not drawn) — translation activity (Trypanosoma cruzi; reporter mRNA translation, inhibitor, measured: Renilla luciferase mRNA; cell-free extract; concentration not given, test 2; baseline: positive over negative control): 136% and 105%
COCCOCCOCCNC(=O)Cc1cc(CC(=O)N[C@H]2C[C@H]3C(=O)Nc4cc(OCCOCCOCCOC)cc(n4)C(=O)N4CCC[C@H]4C(=O)Nc4cc(OCCOCCOCCOC)cc(n4)C(=O)N4CCC[C@H]4C(=O)Nc4cc(OCCOCCOCCOC)cc(n4)C(=O)N3C2)cc(CC(=O)N[C@H]2C[C@H]3C(=O)Nc4cc(OCCOCCOCCOC)cc(n4)C(=O)N4CCC[C@H]4C(=O)Nc4cc(OCCOCCOCCOC)cc(n4)C(=O)N4CCC[C@H]4C(=O)Nc4cc(OCCOCCOCCOC)cc(n4)C(=O)N3C2)c1 — ΔG (anion binding, ITC; water; 298 K, together with: sodium sulfate): -4.52 ± 0.0478 kcal/mol
COC1CN([C@H]2CC[C@H]([C@@]3(C)Oc4c(Cl)cc(C(=O)NCc5c(SC)cc(C)[nH]c5=O)c(C)c4O3)CC2)C1 — log2 fold change (RNA-seq, measured: AKT3; human, whole blood; dose not given, 24 h; baseline: pretreatment baseline): 1.45
COC1OC(C)C(O)C(OC2OC(C)C(O)C(OC3OC(C)C(O)C(OC4OC(C)C(O)C(OC5OC(C)C(O)C(OC6OC(C)C(O)C(OC7OC(C)C(O)C(OC8OC(C)C(O)C(OC9OC(C)C(O)C(OC%10OC(C)C(O)C(OS(=O)(=O)O)C%10OS(=O)(=O)O)C9OS(=O)(=O)O)C8OS(=O)(=O)O)C7OS(=O)(=O)O)C6OS(=O)(=O)O)C5OS(=O)(=O)O)C4OS(=O)(=O)O)C3OS(=O)(=O)O)C2OS(=O)(=O)O)C1OS(=O)(=O)O (stereo not drawn) — APTT prolongation (human plasma; 128 µg/mL; baseline: control): 1.4 fold
OC[C@@H]1[C@@H](O)[C@H](O)[C@@H](O)CN1CCCCCOCc1ccc(-c2ccccc2)c(C(F)(F)F)c1 — IC50 (Lysosomal acid glucosylceramidase (GBA1, Homo sapiens, UniProt P04062, R534H); inhibitor, 4MU-β-D-glucopyranoside; together with: 4MU-β-D-glucopyranoside): 100 nM
CC(C)C[C@H](NC(=O)CNC(=O)[C@H](CCC(N)=O)NC(=O)[C@H](CC(C)C)NC(=O)[C@H](CC(C)C)NC(=O)[C@H](CCCNC(=N)N)NC(=O)[C@H](CCC(N)=O)NC(=O)[C@H](CC(C)C)NC(=O)[C@H](CCCNC(=N)N)NC(=O)[C@H](C)NC(=O)CNC(=O)[C@H](CCC(=O)O)NC(=O)[C@H](CCCNC(=N)N)NC(=O)[C@H](CC(C)C)NC(=O)[C@H](CCCNC(=N)N)NC(=O)[C@H](CO)NC(=O)[C@H](CC(C)C)NC(=O)[C@H](CCC(=O)O)NC(=O)[C@H](CO)NC(=O)[C@@H](NC(=O)[C@H](Cc1ccccc1)NC(=O)[C@@H](NC(=O)CNC(=O)[C@H](CC(=O)O)NC(=O)C(C)(C)NC(=O)[C@@H](N)Cc1c[nH]cn1)[C@@H](C)O)[C@@H](C)O)C(=O)N[C@@H](CC(C)C)C(=O)N[C@@H](CCC(N)=O)C(=O)NCC(=O)N[C@@H](CC(C)C)C(=O)N[C@H](C(=O)NCC(=O)N[C@@H](CCCCNC(=O)COCCOCCNC(=O)COCCOCCNC(=O)CC[C@H](NC(=O)CCCCCCCCCCCCCCCCC(=O)O)C(=O)O)C(N)=O)C(C)C — energy expenditure (indirect calorimetry; DIO C57BL/6J mice; dose not given, from day 28, body weight as covariate, together with: GLP-1R agonist co-treatment): increased
COC1OC(C)C(OS(=O)(=O)O)C(OC2OC(C)C(OS(=O)(=O)O)C(OC3OC(C)C(OS(=O)(=O)O)C(OC4OC(C)C(OS(=O)(=O)O)C(OC5OC(C)C(OS(=O)(=O)O)C(OC6OC(C)C(OS(=O)(=O)O)C(OC7OC(C)C(OS(=O)(=O)O)C(OC8OC(C)C(OS(=O)(=O)O)C(OC9OC(C)C(OS(=O)(=O)O)C(OS(=O)(=O)O)C9O)C8O)C7O)C6O)C5O)C4O)C3O)C2O)C1O (stereo not drawn) — APTT prolongation (human plasma; 128 µg/mL; baseline: control): 1.3 fold
